Measurements of several laboratories.
Every numbered part comes from another study and shows a few of its results, in no order.

Study 1
Target: Prothrombin, mature alpha-thrombin (F2, Homo sapiens, UniProt P00734)
Method: aptamer microarray, sandwich
Molecule type: DNA with 2'F-ANA
Matrix: in vitro
Concentration: 200 nM
Notes: whole 15-mer aptamer, many near background
Together with: Cy3 exosite-II aptamer, 400 nM
Direction: higher = stronger binding
Strand: GGTTGGTGTGGTTGG
| Modification | mean fluorescence intensity |
| --- | --- |
| 2'F-ANA at 1 4 6 7 10 13 | 47.9 a.u. |
| 2'F-ANA at 2 5 9 10 11 12 13 14 15 | 53.4 a.u. |
| 2'F-ANA at 2 5 6 13 14 15 | 46.9 a.u. |
| 2'F-ANA at 2 3 4 8 10 11 12 14 | 180 a.u. |
| 2'F-ANA at 1 2 3 5 7 8 9 11 12 14 | 269 a.u. |
| 2'F-ANA at 1 5 6 10 11 14 15 | 63.2 a.u. |
| 2'F-ANA at 1 2 3 6 7 8 10 11 12 13 14 | 56.7 a.u. |

Study 2
Target: Interferon regulatory factor 5, full length, phosphomimetic (IRF5, Homo sapiens, UniProt Q13568-2, residues 1-514, K96S/S451D/S453D/S456D/S462D)
Method: protein-binding microarray
Molecule type: double-stranded DNA, one strand shown
Matrix: in vitro
Concentration: 250 nM
Notes: 60-bp whole probe
Together with: salmon DNA 0.4 mg/ml
Relative to: random background probes
Direction: higher = stronger binding
| Strand | log fluorescence |
| --- | --- |
| GCCTAGCACTTAGGACTGCTGCTCCTTTAGTGCTAGGTCTTGATTCGCTTGACGCTGCTG | -0.684 z-score |
| GCCTAGCACTCTGTTTCTGATATGGTATGGTGCTAGGTCTTGATTCGCTTGACGCTGCTG | 2.33 z-score |
| GCCTAGCACTCAGAAATTTCTTTCTAACTGTGCTAGGTCTTGATTCGCTTGACGCTGCTG | 1.76 z-score |
| GCCTAGCACGACGGTATCGGGTAGCGGGACGTGCTAGTCTTGATTCGCTTGACGCTGCTG | 2.7 z-score |

Study 3
Target: PABPC1L2, full length, GST fusion (mouse, UniProt A0ABA7IW68)
Method: RNAcompete
Molecule type: RNA
Matrix: in vitro
Concentration: 20 nM
Notes: 7-mer, probes averaged, single round
Relative to: mean of 7-mers
Direction: higher = stronger binding
Residues (chain): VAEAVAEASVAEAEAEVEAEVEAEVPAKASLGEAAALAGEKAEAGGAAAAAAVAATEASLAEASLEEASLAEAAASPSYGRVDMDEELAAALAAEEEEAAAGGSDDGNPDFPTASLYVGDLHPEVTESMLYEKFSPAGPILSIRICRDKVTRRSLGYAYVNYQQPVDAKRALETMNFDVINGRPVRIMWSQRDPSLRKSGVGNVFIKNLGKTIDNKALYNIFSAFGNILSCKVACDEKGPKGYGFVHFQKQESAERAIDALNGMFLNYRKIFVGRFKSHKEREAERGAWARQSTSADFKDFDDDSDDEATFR
| Strand | 7-mer Z-score |
| --- | --- |
| AUGGUUC | -0.229 |
| CGGGUUC | -0.19 |
| GAAACUU | 0.361 |
| CAAGGGU | 0.182 |
| AUCGGGC | 0.0478 |

Other studies, line by line
| Molecule | target | assay | test system | conditions | scale | measurement | value |
| --- | --- | --- | --- | --- | --- | --- | --- |
| PhoQ, residues 284 288 289 292 302 303 WVSSAF | PhoP, residues 12 14 15 18 19 VQALL (Escherichia coli, UniProt P23836) | Sort-seq, item: YFP reporter | E. coli | PhoQ-PhoP variant library, together with: 10 µM Mg2+ | relative to: high Mg2+ state, higher = stronger signaling | fold induction | 11.1 |

For quick reference, copied from above (study 2):
| Strand | log fluorescence |
| --- | --- |
| GCCTAGCACTCTGTTTCTGATATGGTATGGTGCTAGGTCTTGATTCGCTTGACGCTGCTG | 2.33 z-score |
